# Results gathered from unrelated publications.
# Protocols differ between the studies behind these lines. Values joined by “and” are separate records of one study, mostly repeats; a detail may differ. ± gives the spread as reported.
Compound,test,test system,conditions,scale,endpoint,result
Cc1cc([C@H]2C[C@H]3[C@@H](CF)SC(N)=N[C@@]3(c3ccc(F)cc3F)CO2)on1,,"male 129/SVE wild-type mouse, plasma","subcutaneous, 30 mg/kg, 1 h",,plasma concentration,5.12 µM
Cc1ccc(N(C)C(=O)/C=C/c2ccco2)cc1,cold plate test,mice,"oral, 30 mg/kg daily for 7 days, 60 min after dose, day 8",,licking latency,19.8 ± 0.5 s
O=C(O)C1=CO[C@@H](O[C@@H]2O[C@H](CO)[C@@H](O)[C@H](O)[C@H]2O)[C@@H]2C(CO)=CC[C@H]12,,rat plasma,"8 ng/mL, 2 weeks, -70 °C, post-preparative stability",,accuracy,88.1%
C/C=C/C(=O)Nc1ccc(-n2nc3c(=O)[nH]nc(N)c3c2-c2oc3ccc(C)cc3c2C)cc1,,"BALB/c nude mouse, whole blood","1 µM, 0.5 h, 37 °C",,remaining compound,99.2%
CNC(=O)c1cc(Oc2ccc(NC(=O)Nc3ccc(Cl)c(C(F)(F)F)c3)c(F)c2)cc[n+]1[O-],long-term stability,mouse plasma,"25 ng/mL, 6 months, -80 °C",,accuracy,98.6%
CN(C(=O)n1cnc(-c2cccnc2)c1)[C@H]1CC[C@H](O)CC1,,"rat, cortex","oral, 10 mg/kg single dose, 1 h",,tissue concentration,15.8 ± 0.7 ng/g
CCc1cc(C(=O)NC)c2nccc(N3CCc4c(cc(Cn5ccnc5)cc4-c4cn(C)nc4C(F)(F)F)C3=O)c2c1,,Sprague Dawley rat,"oral, 100 mg/kg once daily, day 3, 7-day toxicology study",,body weight,234 ± 3.7 g
O=C([O-])CN1CCN(CC(=O)[O-])CCN([C@H](CO)[C@H](O)CO)CCN(CC(=O)[O-])CC1.[Gd+3] (racemic),LC-ICP-MS,human plasma,"pH 7.4, 37 °C",relative to: total Gd per day,Gd release,0.008%
N[C@@H](CC(=O)N1CCn2c(nnc2C(F)(F)F)C1)Cc1cc(F)c(F)cc1F,,"female human, plasma","oral, 100 mg single dose",,AUC(0-2),442 ± 122 ng·h/mL
C[C@H]1O[C@@H](O[C@H]2[C@@H](O)C[C@H](O[C@H]3[C@@H](O)C[C@H](O[C@H]4CC[C@@]5(C)[C@H](CC[C@@H]6[C@@H]5C[C@@H](O)[C@]5(C)[C@@H](C7=CC(=O)OC7)CC[C@]65O)C4)O[C@@H]3C)O[C@@H]2C)C[C@H](O)[C@@H]1O,"measured: respiratory, thoracic, mediastinal disorders",healthy men,"oral, dose not given, 8 days, treatment-emergent, crossover trial",,subjects with adverse event,0%
O=c1c(O)c(-c2ccccc2)oc2cc3ccccc3cc12,,DMSO,,,CO release quantum yield,~0.6%
O=C(Nc1nc2cccc(-c3ccc(CN4CCS(=O)(=O)CC4)cc3)n2n1)C1CC1,measured: regurgitation,rheumatoid arthritis patients,"oral, 150 mg once daily, 4 weeks, any relatedness",,treatment-emergent adverse events,0%
N#Cc1ccc(C(c2ccc(C#N)cc2)n2cncn2)cc1,,"human patients, plasma","oral, 10 mg daily",,AUC at steady state per dose,4.32 ± 1.13 µg·h/mL/mg
CC(C)C[C@H](N)C(=O)N[C@@H](Cc1c[nH]c2ccccc12)C(=O)N[C@@H](Cc1c[nH]c2ccccc12)C(=O)N[C@@H](CCCNC(=N)N)C(=O)N[C@@H](Cc1c[nH]c2ccccc12)C(=O)N[C@@H](Cc1c[nH]c2ccccc12)C(=O)N[C@@H](CCCNC(=N)N)C(=O)N[C@@H](Cc1c[nH]c2ccccc12)C(=O)N[C@@H](CCCNC(=N)N)C(=O)O,circular dichroism,30 mM SDS,,,helix content,3.65%
Cc1c(-c2ccc(N3CCc4cccc(C(=O)Nc5nc6ccccc6s5)c4C3)nc2C(=O)O)cnn1CC12CC3(C)CC(C)(C1)CC(OCCNCC[C@H](O)CO)(C3)C2,,anaesthetised male beagle dogs,"intravenous infusion, 0.3 mg/kg/min, 120 min",relative to: vehicle,cardiac output change,-45%
CCN1CCN(Cc2ccc(NC(=O)c3ccc(C)c(NC(=O)c4cncc(-c5cccs5)c4)c3)cc2C(F)(F)F)CC1,LC-MS/MS,"C57BL/6 mouse, plasma","intraperitoneal, 30 mg/kg single dose, 4 h",,mean plasma concentration,349 ng/mL
COc1cc2c3c(n(CCCN4CCOCC4)c(=O)c2cc1OC)-c1cc2c(cc1C3=O)OCO2,,"Fischer 344 rats, female","intravenous bolus, 12 mg/m^2",,volume of distribution,178 L/m²
CNCCOC12CC3(C)CC(C)(CC(Cn4ncc(-c5ccc(N6CCc7cccc(C(=O)Nc8nc9ccccc9s8)c7C6)nc5C(=O)O)c4C)(C3)C1)C2,,anaesthetised male beagle dogs,"intravenous bolus, 0.03 mg/kg, 30 min",relative to: baseline,systemic vascular resistance change,9%
C[C@@H](Oc1ccc(S(C)(=O)=O)cc1C(=O)N1C[C@@H]2C[C@]2(c2cc(C(F)(F)F)on2)C1)C(F)(F)F,,"young healthy humans, plasma and urine","oral, 75 mg, 0 to 24 h, multiple dosing once daily",,renal clearance at steady state,5.75 mL/min
O=C(Cc1ccc2ccccc2c1)Nc1cc(C2CCC2)[nH]n1,,mouse plasma,"375 ng/mL, -80 °C, freeze-thaw stability, added: 3 freeze-thaw cycles",,accuracy,100%
COc1ncc(-c2nc3c(n2C(C)C)[C@H](c2ccc(Cl)cc2)N(c2cc(Cl)cn(C)c2=O)C3=O)c(OC)n1,,"human patients, plasma","oral, 25 mg, 0-24 h, high-dose arm, cycle 2 day 1",,AUC(0-t) geometric mean,1880 ng·h/mL
COc1cccc(OC)c1-c1cc(C(=O)NC2(C(=O)O)C3CC4CC(C3)CC2C4)nn1-c1ccc(C(=O)N(C)CCCN(C)CCCN(C)C(=O)CN2CCN(CC(=O)[O-])CCN(CC(=O)[O-])CCN(CC(=O)[O-])CC2)cc1C(C)C.[177Lu+3] (centres unmarked),,"mouse, HT-29 xenograft","168 h post injection, biodistribution",relative to: tumour over heart uptake,tumour-to-heart ratio,19.2
Cc1cc(Nc2ccc(S(F)(F)(F)(F)F)cc2)n2nc(C(C)(F)F)nc2n1,,Plasmodium vivax malaria patients,"oral, 600 mg",,adverse event gastrointestinal disorders,22.2%
C[C@@H]1CN(CC(=O)N2CC(C)(C)c3nc(CO)c(Cc4ccc(F)cc4)cc32)[C@@H](CN2CCOC[C@H]2C)CN1,,"cynomolgus monkey, male","oral, 5 mg/kg, median",,Tmax,30 min
CNC(=O)c1ccc(-c2cnc3ncc(Cc4ccc5ncccc5c4)n3n2)cc1F,,Japanese patients,"oral, 400 mg, grade 3/4",,Pneumonitis dose reduction/interruption,0%
COc1ccc2c(=O)n(C)c(-c3ccccc3)nc2c1,,"male Sprague-Dawley rat, large intestine","oral, 30 mg/kg, 0.25 h",,tissue concentration,165 ng/g
O=C(O)CCC(=O)O.[2H]C([2H])([2H])Oc1cc(C)c2[nH]ccc2c1CN1CC[C@@H](C2CC2)C[C@H]1c1ccc(C(=O)O)cc1,,"human, plasma","100 mg twice daily, day 10, multiple ascending dose",,Vss/F,95.4 L
CC(C)[C@H](C(=O)Nc1ccc(C(=O)NO)cc1)c1ccccc1,,whole blood,"1000 ng/mL, 3 h, 4 °C, stability on ice",,accuracy,107%
CC(C)n1c(Nc2cccnc2)nc2cnc(Nc3ccc(N4CCN(C)CC4)cc3)nc21,measured: γ-glutamyltransferase increased,healthy male subjects,"oral, 150 mg, study, added: rifampin",,subjects with adverse event,0%
FC(F)(F)c1ccc(CNc2ccc(Cc3c[nH]c4ncc(Cl)cc34)cn2)cn1,measured: weight increased,"human, advanced solid tumours, all patients","oral, 1000 mg/day, any grade",,treatment-related adverse events,4%
COc1ccc2nc([S@@+]([O-])Cc3ncc(CO)c(OC)c3C)[nH]c2c1,,human,"concentration not given, fluvoxamine plus voriconazole inhibition session",relative to: (R)-OH-omeprazole over compound,AUC ratio,3.5 fold
C=CC(=O)NC1CCN(c2ncc3ncnc(Nc4ccc(Oc5ccc6c(c5)ncn6C)c(C)c4)c3n2)CC1,measured: dry mouth,human male,"oral, dose not given, AEs, treatment-related, on drug, CTCAE",,adverse events incidence,0%
COc1cc(N2CCC(N3CCN(C)CC3)CC2)ccc1Nc1ncc(Cl)c(Nc2ccccc2P(C)(C)=O)n1,,"human male, feces","oral, 180 mg",relative to: dose,radioactivity recovered,64.8%
c1ccc2c(c1)ccc1cc3c(ccc4ccccc43)cc12,,PDMS-water partitioning,PAH compilation,,literature range of log K,5.42 to 5.7 log units
CC(C)(C(=O)N1CCOc2c(C#N)cncc2C1)C(F)F,measured: Headache,human,"oral, 10 mg once daily, 14 days, multiple ascending dose",,subjects with adverse event,25%
CC(C)C[C@H](NC(=O)[C@@H](Cc1c[nH]c2ccccc12)NC(=O)[C@H](Cc1ccc(O)cc1)NC(=O)[C@H](CO)NC(=O)[C@H](Cc1c[nH]c2ccccc12)NC(=O)[C@H](Cc1c[nH]cn1)NC(=O)[C@@H]1CCC(=O)N1)C(=O)N[C@@H](CCCNC(=N)N)C(=O)N1CCC[C@H]1C(=O)NCC(N)=O,,Chinese CPP girls,"intramuscular, 22.5 mg, 12 months, day 1, month 6",,"patients, drug-related Constipation TEAEs",1.6%
CNC(=O)c1cc(Oc2ccc(NC(=O)Nc3cc(C(C)(C)C)nn3-c3ccc4ncccc4c3)c(F)c2)ccn1,measured: worst grade 1,human,"oral, dose not given, cycles 1 and 2, Medium AUC(0-4 h) subgroup",,patients with any AE of special interest,43%
CCCC(CCC)C(=O)Oc1cccc(C(O)CCN)c1.O=CO (centres unmarked),,"Abca4-/-Rdh8-/- mice, photic damage","oral, 20 mg/kg, 7 days, flash intensity 0.003",,"ERG, scotopic, rod b-wave",36.2 µV and 42.7 µV and 59.4 µV and 34.2 µV and 56 µV and 51.3 µV

# Some of these lines once more:
Compound,test,test system,conditions,scale,endpoint,result
O=C(Nc1nc2cccc(-c3ccc(CN4CCS(=O)(=O)CC4)cc3)n2n1)C1CC1,measured: regurgitation,rheumatoid arthritis patients,"oral, 150 mg once daily, 4 weeks, any relatedness",,treatment-emergent adverse events,0%
N#Cc1ccc(C(c2ccc(C#N)cc2)n2cncn2)cc1,,"human patients, plasma","oral, 10 mg daily",,AUC at steady state per dose,4.32 ± 1.13 µg·h/mL/mg
CC(C)C[C@H](N)C(=O)N[C@@H](Cc1c[nH]c2ccccc12)C(=O)N[C@@H](Cc1c[nH]c2ccccc12)C(=O)N[C@@H](CCCNC(=N)N)C(=O)N[C@@H](Cc1c[nH]c2ccccc12)C(=O)N[C@@H](Cc1c[nH]c2ccccc12)C(=O)N[C@@H](CCCNC(=N)N)C(=O)N[C@@H](Cc1c[nH]c2ccccc12)C(=O)N[C@@H](CCCNC(=N)N)C(=O)O,circular dichroism,30 mM SDS,,,helix content,3.65%
Cc1c(-c2ccc(N3CCc4cccc(C(=O)Nc5nc6ccccc6s5)c4C3)nc2C(=O)O)cnn1CC12CC3(C)CC(C)(C1)CC(OCCNCC[C@H](O)CO)(C3)C2,,anaesthetised male beagle dogs,"intravenous infusion, 0.3 mg/kg/min, 120 min",relative to: vehicle,cardiac output change,-45%
CCN1CCN(Cc2ccc(NC(=O)c3ccc(C)c(NC(=O)c4cncc(-c5cccs5)c4)c3)cc2C(F)(F)F)CC1,LC-MS/MS,"C57BL/6 mouse, plasma","intraperitoneal, 30 mg/kg single dose, 4 h",,mean plasma concentration,349 ng/mL
COc1cc2c3c(n(CCCN4CCOCC4)c(=O)c2cc1OC)-c1cc2c(cc1C3=O)OCO2,,"Fischer 344 rats, female","intravenous bolus, 12 mg/m^2",,volume of distribution,178 L/m²
